Results from different studies.
Each numbered part is a random draw from the data of one study; scales do not carry over between parts.

Series 1 — method: aptamer microarray, sandwich; form: DNA with 2'F-ANA; matrix: in vitro; tested at: 200 nM; together with: Cy3 exosite-II aptamer, 400 nM; direction: higher = stronger binding; strand: GGTTGGTGTGGTTGG
Target: Prothrombin, mature alpha-thrombin (F2, Homo sapiens, UniProt P00734)
Setting: whole 15-mer aptamer, many near background
Modification	mean fluorescence intensity
2'F-ANA at 2 4 5 7	70 a.u.
2'F-ANA at 1 5 6 7 10 12 14 15	57.5 a.u.
2'F-ANA at 3 5 7 9 10 12 13 14	58.4 a.u.
2'F-ANA at 4 6 7 9 12 13 14	99 a.u.
2'F-ANA at 1 3 5 6 9 13 14	45.5 a.u.
2'F-ANA at 1 2 4 6 7 11 12 13	135 a.u.
2'F-ANA at 2 3 5 9 12	243 a.u.

Series 2 — method: universal PBM; form: double-stranded DNA, one strand shown; matrix: in vitro; tested at: not given; direction: higher = stronger binding
Target: Sal-like protein 4, full length isoform B (SALL4, Homo sapiens, UniProt Q9UJQ4-2, residues 1-616)
Setting: 8-mer, flanks averaged, mean of replicates
Construct (chain): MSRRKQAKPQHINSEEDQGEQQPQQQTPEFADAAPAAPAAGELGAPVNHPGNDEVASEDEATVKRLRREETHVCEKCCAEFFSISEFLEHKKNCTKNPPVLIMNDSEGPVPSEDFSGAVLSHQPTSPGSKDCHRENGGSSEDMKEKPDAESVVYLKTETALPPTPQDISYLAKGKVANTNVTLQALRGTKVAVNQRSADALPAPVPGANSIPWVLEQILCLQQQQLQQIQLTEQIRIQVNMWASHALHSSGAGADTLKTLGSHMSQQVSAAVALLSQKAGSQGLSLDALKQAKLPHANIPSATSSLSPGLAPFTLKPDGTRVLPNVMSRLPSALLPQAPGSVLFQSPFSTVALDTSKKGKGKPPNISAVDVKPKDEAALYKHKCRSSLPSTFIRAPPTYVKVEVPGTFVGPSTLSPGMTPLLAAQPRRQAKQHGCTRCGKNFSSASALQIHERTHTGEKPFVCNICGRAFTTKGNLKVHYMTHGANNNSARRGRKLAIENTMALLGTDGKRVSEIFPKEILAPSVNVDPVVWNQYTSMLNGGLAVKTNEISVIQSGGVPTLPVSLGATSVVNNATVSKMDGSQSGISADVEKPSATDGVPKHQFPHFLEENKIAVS
Strand	E-score
GAAAGTCA	0.0735
AATAAGCC	0.175
ACAATAGG	0.169
ATAGGAGC	0.0999
AGTAGCGA	-0.00235

Series 3 — method: protein binding microarray; form: double-stranded DNA, one strand shown; matrix: in vitro; tested at: not given; baseline: not given; direction: higher = stronger binding
Target: Histone acetyltransferase KAT6A, winged helix 2, GST fusion (KAT6A, Homo sapiens, UniProt Q92794, residues 85-181)
Setting: 8-mer, flanks averaged, mean of 2 arrays, mostly near background
Target sequence (chain): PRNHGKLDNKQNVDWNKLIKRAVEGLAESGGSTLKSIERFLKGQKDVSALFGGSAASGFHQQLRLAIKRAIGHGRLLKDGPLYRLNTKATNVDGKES
Strand	E-score
CGAGGACG	0.202
AAGCTGAG	0.0289
GGCCGCAA	0.148
ATCGTGAG	0.00486

Further values, each from its own experiment
Substance	target	assay	test system	conditions	how to read	quantity	value
PhoQ, residues 284 288 289 292 302 303 AANNSF	PhoP, residues 12 14 15 18 19 STWGI (Escherichia coli, UniProt P23836)	Sort-seq, measured: YFP reporter	E. coli	PhoQ-PhoP variant library, together with: 10 µM Mg2+	baseline: high Mg2+ state, higher = stronger signaling	fold induction	0.76

For quick reference, copied from above (series 3):
Strand	E-score
CGAGGACG	0.202
GGCCGCAA	0.148
